Published values collected from several papers.
Parts stem from different laboratories: compare values within a part only.

Sample 1
Host: mice, PTZ-induced seizures
Route: oral
Dose: 20 mg/kg
Time: 24 h after PTZ
Structure (SMILES) | mortality
O=C(O)COc1ccccc1/C=N/NC(=O)CNc1ccc(Cl)cc1 | 20%
O=C(O)COc1ccc(Br)cc1/C=N/NC(=O)c1ccccc1 | 40%
O=C(O)COc1ccc(Br)cc1/C=N/NC(=O)CNc1ccc(Cl)cc1 | 50%
Cc1ccc(C(=O)N/N=C/c2cc(Br)ccc2OCC(=O)O)cc1 | 10%
O=C(O)COc1ccc(Br)cc1/C=N/NC(=O)CNc1ccccc1 | 40%
O=C(O)COc1ccc(Br)cc1C=NNC(=O)Cc1ccccc1 (mixture of isomers) | 0%

Sample 2
Target: C-X-C chemokine receptor type 4 (CXCR4, Homo sapiens, UniProt P61073)
Sequence of UniProt P61073 (whole entry, looked up): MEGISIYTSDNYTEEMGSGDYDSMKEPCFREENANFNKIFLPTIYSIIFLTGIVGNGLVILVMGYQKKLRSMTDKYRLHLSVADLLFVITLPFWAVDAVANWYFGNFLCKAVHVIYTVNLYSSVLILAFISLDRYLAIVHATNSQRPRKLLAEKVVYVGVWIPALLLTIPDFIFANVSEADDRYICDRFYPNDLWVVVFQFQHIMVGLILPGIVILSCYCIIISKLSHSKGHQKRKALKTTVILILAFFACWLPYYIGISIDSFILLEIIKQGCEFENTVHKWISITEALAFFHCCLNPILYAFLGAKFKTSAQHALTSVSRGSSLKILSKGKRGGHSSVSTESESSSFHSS
Read-out: ligand displacement
Technique: radioligand
Compound | IC50 [nM]
CC(C)C[C@H](NC(=O)[C@H](CO)NC(=O)[C@@H](NC(=O)[C@@H]1CCCN1C(=O)[C@@H](N)CCCCN)C(C)C)C(=O)N[C@@H](CO)C(=O)NCCCC[C@H](NC(=O)[C@@H]1CSSC[C@H](NC(=O)[C@H](Cc2ccc3ccccc3c2)NC(=O)[C@H](CCCNC(=N)N)NC(=O)[C@@H](N)CCCNC(=N)N)C(=O)N[C@@H](Cc2ccc(O)cc2)C(=O)N[C@@H](CCCNC(=N)N)C(=O)N[C@@H](CCCCN)C(=O)N[C@H](CCCCN)C(=O)N2CCC[C@H]2C(=O)N[C@@H](Cc2ccc(O)cc2)C(=O)N[C@@H](CCCNC(=N)N)C(=O)N[C@@H](CCCNC(=N)N)C(=O)N1)C(=O)O | 28.3
CC(C)C[C@H](NC(=O)[C@H](CO)NC(=O)[C@@H](NC(=O)[C@@H]1CCCN1C(=O)[C@@H](N)CCCCN)C(C)C)C(=O)N[C@@H](CO)C(=O)N[C@@H](Cc1ccc(O)cc1)C(=O)N[C@@H](CCCNC(=N)N)C(=O)NCCCC[C@@H]1NC(=O)[C@H](CCCNC(=N)N)NC(=O)[C@H](Cc2ccc(O)cc2)NC(=O)[C@@H]2CCCN2C(=O)[C@@H](CCCCN)NC(=O)[C@H](CCCCN)NC(=O)[C@H](CCCNC(=N)N)NC(=O)[C@H](Cc2ccc(O)cc2)NC(=O)[C@@H](NC(=O)[C@H](Cc2ccc3ccccc3c2)NC(=O)[C@H](CCCNC(=N)N)NC(=O)[C@@H](N)CCCNC(=N)N)CSSC[C@@H](C(=O)N[C@@H](CCCNC(=N)N)C(=O)O)NC1=O | 2.22
CC(C)C[C@H](NC(=O)[C@H](CO)NC(=O)[C@@H](NC(=O)[C@@H]1CCCN1C(=O)[C@@H](N)CCCCN)C(C)C)C(=O)N[C@@H](CO)C(=O)N[C@@H](Cc1ccc(O)cc1)C(=O)N[C@@H](CCCNC(=N)N)C(=O)NCCCC[C@H](NC(=O)[C@@H]1CSSC[C@H](NC(=O)[C@H](Cc2ccc3ccccc3c2)NC(=O)[C@H](CCCNC(=N)N)NC(=O)[C@@H](N)CCCNC(=N)N)C(=O)N[C@@H](Cc2ccc(O)cc2)C(=O)N[C@@H](CCCNC(=N)N)C(=O)N[C@@H](CCCCN)C(=O)N[C@H](CCCCN)C(=O)N2CCC[C@H]2C(=O)N[C@@H](Cc2ccc(O)cc2)C(=O)N[C@@H](CCCNC(=N)N)C(=O)N[C@@H](CCCNC(=N)N)C(=O)N1)C(=O)O | 16.5
CC(C)C[C@H](NC(=O)[C@H](CO)NC(=O)[C@@H](NC(=O)[C@@H]1CCCN1C(=O)[C@@H](N)CCCCN)C(C)C)C(=O)N[C@@H](CO)C(=O)N[C@@H](Cc1ccc(O)cc1)C(=O)N[C@@H](CCCNC(=N)N)C(=O)N[C@@H](CO)C(=O)NCCCC[C@H](NC(=O)[C@@H]1CSSC[C@H](NC(=O)[C@H](Cc2ccc3ccccc3c2)NC(=O)[C@H](CCCNC(=N)N)NC(=O)[C@@H](N)CCCNC(=N)N)C(=O)N[C@@H](Cc2ccc(O)cc2)C(=O)N[C@@H](CCCNC(=N)N)C(=O)N[C@@H](CCCCN)C(=O)N[C@H](CCCCN)C(=O)N2CCC[C@H]2C(=O)N[C@@H](Cc2ccc(O)cc2)C(=O)N[C@@H](CCCNC(=N)N)C(=O)N[C@@H](CCCNC(=N)N)C(=O)N1)C(=O)O | 5.67
CC(C)C[C@H](NC(=O)[C@H](CO)NC(=O)[C@@H](NC(=O)[C@@H]1CCCN1C(=O)[C@@H](N)CCCCN)C(C)C)C(=O)N[C@@H](CO)C(=O)N[C@@H](Cc1ccc(O)cc1)C(=O)N[C@@H](CCCNC(=N)N)C(=O)N[C@@H](CO)C(=O)NCCCC[C@H](NC(=O)[C@@H]1CSSC[C@H](NC(=O)[C@H](Cc2ccc3ccccc3c2)NC(=O)[C@H](CCCNC(=N)N)NC(=O)[C@@H](N)CCCNC(=N)N)C(=O)N[C@@H](Cc2ccc(O)cc2)C(=O)N[C@@H](CCCNC(=N)N)C(=O)N[C@@H](CCCCN)C(=O)N[C@H](CCCCN)C(=O)N2CCC[C@H]2C(=O)N[C@@H](Cc2ccc(O)cc2)C(=O)N[C@@H](CCCNC(=N)N)C(=O)N[C@@H](CCCNC(N)=O)C(=O)N1)C(=O)O | 21.2

Other studies, line by line
Structure (SMILES) | target or system | assay | system | endpoint | value
CC(C)(C)OC(=O)NC(C(=O)NO)c1ccc(Br)cc1 (stereo not shown) | aminopeptidase N2 (Toxoplasma gondii, UniProt S8G5K8, N1303Q/N840Q) | – | – | Ki | 2900 nM
CC(C)C[C@H](NC(=O)[C@@H](NC(=O)[C@H](CCONC(=N)N)NC(=O)OCc1ccccc1)C1CCCCC1)[C@@H](O)CC(=O)NCCc1ccccc1 | Plasmodium falciparum | parasite growth, LDH | parental resistant | EC50 | 380 nM

Some of these lines once more (sample 2):
Compound | IC50 [nM]
CC(C)C[C@H](NC(=O)[C@H](CO)NC(=O)[C@@H](NC(=O)[C@@H]1CCCN1C(=O)[C@@H](N)CCCCN)C(C)C)C(=O)N[C@@H](CO)C(=O)N[C@@H](Cc1ccc(O)cc1)C(=O)N[C@@H](CCCNC(=N)N)C(=O)NCCCC[C@@H]1NC(=O)[C@H](CCCNC(=N)N)NC(=O)[C@H](Cc2ccc(O)cc2)NC(=O)[C@@H]2CCCN2C(=O)[C@@H](CCCCN)NC(=O)[C@H](CCCCN)NC(=O)[C@H](CCCNC(=N)N)NC(=O)[C@H](Cc2ccc(O)cc2)NC(=O)[C@@H](NC(=O)[C@H](Cc2ccc3ccccc3c2)NC(=O)[C@H](CCCNC(=N)N)NC(=O)[C@@H](N)CCCNC(=N)N)CSSC[C@@H](C(=O)N[C@@H](CCCNC(=N)N)C(=O)O)NC1=O | 2.22
